Literature values as cited in several papers.
Protocols differ between the studies behind these lines.
B1: CCL1; sequence looked up; chain KSMQVPFSRCCFSFAEQEIPLRAILCYRNTSSICSNEGLIFKLKRGKEACALDTVGWVQRHRKMLRHCPSKRK

Substance	target or system	test	test system	setting	measurement	value
ifinatamab deruxtecan			patients with advanced solid tumours	dose not given	ILD or pneumonitis, all grades	2.9%
semaglutide			obese humans without diabetes	2.4 mg, titrated over 16 weeks	nausea incidence	44%
insulin icodec			White patients with type 1 diabetes, serum	geometric mean	dose-normalised Cmax at steady state	99.3 (nmol/L)/(U/kg)
pegcetacoplan			human	45 mg single dose, arithmetic mean	AUC(0-inf)	3190 µg·h/mL
human hepcidin			healthy human, plasma	subcutaneous	Tmax	~2 h
B1 (CCL1)	CCR8 Y113A mutant	IP accumulation, agonist			EC50	323 nM
dulaglutide			human	0.75 mg once weekly, steady state	clearance	0.073 L/h
insulin glargine			human type 2 diabetes	double dose, 84 h monitoring	participants with hypoglycaemia	35.5%
KWIKIWFIWRRIKWRK	Staphylococcus aureus		peptide		MIC	15.6 µg/mL
albiglutide			human	once weekly dosing	t1/2	6 to 8 days
DRDRPECSTMVKYEQKLPSLGKYALKRAIKIKFGRK	Pseudomonas aeruginosa		peptide, ATCC 15692		MIC	5 µM
ranibizumab			rabbit	dose not given	half-life	2.8 days
